Assay results gathered from unrelated publications.
Every numbered part comes from another study and shows a few of its results, in no order.

Study 1
Target: Interferon regulatory factor 5, full length, phosphomimetic (IRF5, Homo sapiens, UniProt Q13568-2, residues 1-514, S451D/S453D/S456D/S462D)
Method: protein-binding microarray
Molecule type: double-stranded DNA, one strand shown
Medium: in vitro
Tested at: 940 nM top
Setting: 60-bp whole probe
With: salmon DNA 0.4 mg/ml
Relative to: random background probes
Direction: higher = stronger binding
Endpoint: fitted relative affinity
All sequences stand within: GCCTAGCAC … GTCTTGATTCGCTTGACGCTGCTG
GCCGATTTCAGTATCGAGACGTGCTAG: 3 z-score
GACGGACTGGACTTTCGGGAAGTGCTA: 0.0368 z-score
GACGAACTGGTGTTTCGAGACGTGCTA: 0.254 z-score
TTAGGTTACCTTTCCCTTTAGTGCTAG: 0.533 z-score
GACGAGTTCAGTATCGAGACGTGCTAG: 2.78 z-score
TCAGTTTACATTTTCCAACTGTGCTAG: 0.807 z-score
TTAGGTATCGGTCTCGGTTCGTGCTAG: 10.1 z-score
TTAGGTTCCGGTTTCAGTTAGTGCTAG: 5.49 z-score
AAGTGTATATACTATATGCATGTGCTA: 0.00384 z-score
CTCTTTTTGCTTTCTTTTATGTGCTAG: 2.58 z-score
GACGAACTGGGCTATCGAGACGTGCTA: -0.113 z-score
GGCGGTATCGACTTTCGGGACGTGCTA: 4.97 z-score
AGTGATAACTTTTTTTTTTCGTGCTAG: 0.482 z-score
GACGTACTGAGTATCGAGACGTGCTAG: 1.57 z-score
TCAAGGTTTTCTCTGGTACTGTGCTAG: 0.473 z-score
TCATCTTCTCCTCTAGGACTGTGCTAG: 0.255 z-score
GACGGACCGGGTCTCGGGACGTGCTAG: 0.283 z-score
GACGAACTGAGTCTCGAGACGTGCTAG: 0.791 z-score
TACGATTTCAGTTCCGAGACGTGCTAG: 0.628 z-score

Study 2
Target: Ras GTPase-activating protein-binding protein 1, full length (G3BP1, Homo sapiens, UniProt Q13283)
Sequence of UniProt Q13283 (whole entry, looked up): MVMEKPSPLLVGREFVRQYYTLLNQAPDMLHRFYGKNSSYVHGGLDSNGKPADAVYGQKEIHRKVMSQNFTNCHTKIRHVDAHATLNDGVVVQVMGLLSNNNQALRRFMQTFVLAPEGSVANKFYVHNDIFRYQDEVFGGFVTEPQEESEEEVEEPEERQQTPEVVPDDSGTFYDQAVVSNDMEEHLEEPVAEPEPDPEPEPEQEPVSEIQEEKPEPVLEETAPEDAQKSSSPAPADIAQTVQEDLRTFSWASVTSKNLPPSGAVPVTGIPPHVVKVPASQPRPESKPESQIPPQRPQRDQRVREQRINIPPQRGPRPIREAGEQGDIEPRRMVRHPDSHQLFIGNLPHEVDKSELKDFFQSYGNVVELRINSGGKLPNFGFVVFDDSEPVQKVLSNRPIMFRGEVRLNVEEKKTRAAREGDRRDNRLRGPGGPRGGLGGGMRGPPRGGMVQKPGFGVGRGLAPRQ
Method: RNA Bind-n-Seq
Molecule type: RNA
Medium: in vitro
Tested at: 200 nM
Setting: whole 134-nt RNA, ends assumed
With: 150 mM KCl
Relative to: input library
Direction: higher = stronger binding
Endpoint: log2 enrichment
All sequences stand within: GGGAGUUCUACAGUCCGACGAUC … UGGAAUUCUCGGGUGUCAAGG
CCUGUGCUACACAUCGUAUGUACCGAAUCGGGGAAAAAAAGGGGUGGGGUUUUUUUGGGGAAAGUAUUAUGUUACGCCGUUCGGAUCUGC: 0.233
UGGCCCUGGUGGCAUGCGGGGAGGAAGAGGUGGCCUCAUGGAUCGUGGUGGUCCCGGUUGAAUGUUCAGAGGUGGCCGUGGUGGAGACAG: -0.115
GUCCUGUGCUACACAUCGUAUGUACCGAAUCGGGAAAAAGGGAAAAAGGGAAAAAGGGAAAGUAUUAUGUUACGCCGUUCGGAUCUGCAC: -0.586
AAGUCCUGUGCUACACAUCGUAUGUACCGAAUCGGGGUUUUGGGUUUUGGUUUUGGAAAGUAUUAUGUUACGCCGUUCGGAUCUGCACUU: -0.789
CAAGUCCUGUGCUACACAUCGUAUGUACCGAAUCGGAAAAGGAAAAGGGAAAAGGGAAAGUAUUAUGUUACGCCGUUCGGAUCUGCACUU: -1.04
CACAGACAACACGCACCCACACAGACACAGAGGGAAGGGGUUGGGAUGGGGACAGGGUGCACAGCAGGGCGGGGUAGGACCCCUGCCCCU: 1.91
UGGCCGGUGGCCGUGAGAACACGCUGUGUGGCUGAAAAGUGAAGGCAAGAGCUGAUUUGGCCUCUGUGCUCCCCUCCGCAAGGGGAUCGU: -0.607
GUCCUGUGCUACACAUCGUAUGUACCGAAUCGGGUUUUUGGGUUUUUGGUUUUUGGGGAAAGUAUUAUGUUACGCCGUUCGGAUCUGCAC: -0.666
AGUCCUGUGCUACACAUCGUAUGUACCGAAUCGGGGUUUUUGGGGUUUGGGGUGGGGAAAGUAUUAUGUUACGCCGUUCGGAUCUGCACU: 0.654

Study 3
Target: RNA binding protein fox-1 homolog 2, RRM domain, GST-SBP tag (RBFOX2, Homo sapiens, UniProt O43251-10, residues 100-194)
Method: RNA Bind-n-Seq
Molecule type: RNA
Medium: in vitro
Tested at: 365 nM
Setting: natural RNA segment, single round, ends assumed
Relative to: no-protein control
Direction: higher = stronger binding
Endpoint: RBNS enrichment (R)
All sequences stand within: GGGAGUUCUACAGUCCGACGAUC … UGGAAUUCUCGGGUGCCAA
Target sequence (chain): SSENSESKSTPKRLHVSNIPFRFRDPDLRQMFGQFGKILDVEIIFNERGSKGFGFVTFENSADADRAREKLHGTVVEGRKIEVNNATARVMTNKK
UCAGAACCUGUGCACUCAUUUGCCCAGCAUUUCCUAGUGUCUAUUGGAUCAGAAACUGGUUUUACCCGGACAUCACAAUCGAGGCCUUCAAAGCAGCGGGGAGUCGGGCU: 0.395
AUUCAAAAUCAAGCUUUGAGCAGGGGAGUGAGGCAGCCAGAAGUGGGGGCAGAGGAGGGUGGCUCUGUUUCCCCAAGGCAAAGCUUAUGACCAAUGGGCCAUCGGACUGG: 1.05
UUUUGAAGAAAUUUAUUCGUGAAAGGAAGAGCAGUUGUUAUUUAUUGUGAGGUCUCUUGCUUGUAAAGUAAAACUGUUUUUUUUUUCCCCCUUGUAAACCAUUUAAGUCC: 0.389
CCAUCAGUCCCGUCCGUCUGUCGCCUUCCCGCAAGCGUCAUCAUCGAAGCCACUGCUCCUGGGAGCACACAAGCUUCUCCCUGGAACAGCUCUUAGGAAAAGAGGCAAAC: 0.179
UAACAUAUUUAUUAUAAUUUAUUUGCACCCUUGGGAAGAUUGCUUUGGCAUUCUGCCUUGAUUCCUUCUCAUUGAUGUCCAGGUCAUCUGGAGGCCGGGGGUUCUCAGAC: 1.77
GUAAGAGUUCCCACUGGCCUUGCUCUGAGGCCAAGAGCUUUUUCAAAUGCAGGCUGCAGGAUUAAGCCAGCUCUUAUGCAACUGACUGUCCUUAAUGAAGAACUCAUAAA: 0.274
CAUUUUCUAAACAAAAAAAAUGGUUUUUUUCUUUGCCUUGUAAUAAGAUUGUAAAUCCAUUUCCUGCUUGUGUUCUUAGUGGGCAUGAUUGUGAGUGUGUGUGGGGUGCU: 3.83
UUGUUCCUAGCUAAUUUCAUGGCUGUGGGAAGUUAGCAACACUAGGUUUAUGACUCUGAAGACCAGAGGACAGCAGGCUUUAAGAGGGCUUAAAUUGGGAGUCAAGGACU: 0.855

Study 4
Target: Histone acetyltransferase KAT6A, winged helix 2, GST fusion (KAT6A, Homo sapiens, UniProt Q92794, residues 85-181)
Method: protein binding microarray
Molecule type: double-stranded DNA, one strand shown
Medium: in vitro
Tested at: not given
Setting: 8-mer, flanks averaged, mean of 2 arrays, mostly near background
Relative to: not given
Direction: higher = stronger binding
Endpoint: E-score
Construct (chain): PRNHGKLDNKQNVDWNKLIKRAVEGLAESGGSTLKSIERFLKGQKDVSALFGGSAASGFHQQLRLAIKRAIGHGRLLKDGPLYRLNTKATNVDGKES
GGATATCC: 0.0825
CGTTAACA: -0.0458
AAACGATT: -0.11
CGTAGTTA: -0.0543
ACCATAAT: -0.084
GCCTAATA: -0.024
CCTCTGCA: 0.132
ATTACTAA: -0.0319
AGACCGCA: 0.154
GACTATCC: -0.168
AGTTCCCA: 0.175
AGCGTCCG: 0.119
AACCTCTC: -0.0134
CAGCCGCG: 0.108
GGCACGTA: -0.116
CCGAACTC: 0.147
ATATCAAA: 0.0231
TGGAGTAA: 0.0456
CAACGGGG: -0.0533
CAACCAAA: -0.00585
